Published values gathered from unrelated publications.
“And” joins repeats or separate records; there may be more than shown. ± marks the error that the study gave.
U2AF2: U2AF2 148-342 (Homo sapiens, UniProt P26368)
UniProt P26368, sequence (whole entry, looked up): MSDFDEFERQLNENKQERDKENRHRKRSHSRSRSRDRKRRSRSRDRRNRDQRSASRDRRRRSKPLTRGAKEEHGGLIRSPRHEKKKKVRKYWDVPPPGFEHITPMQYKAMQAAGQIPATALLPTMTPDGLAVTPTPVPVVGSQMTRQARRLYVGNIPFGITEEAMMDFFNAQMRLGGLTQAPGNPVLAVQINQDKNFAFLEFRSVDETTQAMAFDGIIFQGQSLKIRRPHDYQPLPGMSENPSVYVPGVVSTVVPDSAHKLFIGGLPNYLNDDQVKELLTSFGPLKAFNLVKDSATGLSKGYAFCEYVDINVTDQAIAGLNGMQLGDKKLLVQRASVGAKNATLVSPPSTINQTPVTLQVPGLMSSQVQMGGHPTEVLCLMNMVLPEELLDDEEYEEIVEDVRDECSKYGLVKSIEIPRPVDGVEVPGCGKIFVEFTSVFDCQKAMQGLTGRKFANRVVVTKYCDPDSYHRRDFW
T1: IKBKG 44-113 C95A/C76S/E110V/R106E/E78R/R75V/L55R/T50E; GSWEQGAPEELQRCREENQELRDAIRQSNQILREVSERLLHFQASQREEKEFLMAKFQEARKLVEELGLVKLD
B1: ATP synthase subunit O, human; sequence looked up; chain FAKLVRPPVQVYGIEGRYATALYSAASKQNKLEQVEKELLRVAQILKEPKVAASVLNPYVKRSIKVKSLNDITAKERFSPLTTNLINLLAENGRLSNTQGVVSAFSTMMSVHRGEVPCTVTSASPLEEATLSELKTVLKSFLSQGQVLKLEAKTDPSILGGMIVRIGEKYVDMSVKTKIQKLGRAMREIV
B2: ATG9 864-997 (Saccharomyces cerevisiae, UniProt Q12142); sequence looked up; chain SFLNNKYSWRKQFQPGQKPELFRIGKHALGPGHNISPAIYSTRNPGKNWDNNNNGDDIKNGTNNATAKNDDNNGNNDHEYVLTESFLDSGAFPNHDVIDHNKMLNSNYNGNGILNKGGVLGLVKEYYKKSDVGR
B3: VHH nanobody 6B1 (Lama glama); chain QVQLQESGGGLVQPGGSLRLSCAASGSIFSTDAMGWYRQFPGKNRKLVARISSGDYGDYTNYADSVKGRFTISRDNAKNTVYLQMNSLKPEDTAVYYCNSVPPAPGEYGRDYWGAGTQVTVSS
B4: RSPO4/IgG1 Fc RSPO4 32-137 Q65R/N297Q; CPT2 conjugated via azide click; chain GGNCTGCIICSEENGCSTCQQRLFLFIRREGIRRYGKCLHDCPPGYFGIRGQEVNRCKKCGATCESCFSQDFCIRCKRQFYLYKGKCLPTCPPGTLAHQNTRECQGGGGGSGGGGSGGGGS
B5: Mena EVH1 1-113 (Homo sapiens, UniProt Q8N8S7); chain MSEQSICQARAAVMVYDDANKKWVPAGGSTGFSRVHIYHHTGNNTFRVVGRKIQDHQVVINCAIPKGLKYNQATQTFHQWRDARQVYGLNFGSKEDANVFASAMMHALEVLNS
B6: human DDX1; sequence looked up; chain MAAFSEMGVMPEIAQAVEEMDWLLPTDIQAESIPLILGGGDVLMAAETGSGKTGAFSIPVIQIVYETLKDQQEGKKGKTTIKTGASVLNKWQMNPYDRGSAFAIGSDGLCCQSREVKEWHGCRATKGLMKGKHYYEVSCHDQGLCRVGWSTMQASLDLGTDKFGFGFGGTGKKSHNKQFDNYGEEFTMHDTIGCYLDIDKGHVKFSKNGKDLGLAFEIPPHMKNQALFPACVLKNAELKFNFGEEEFKFPPKDGFVALSKAPDGYIVKSQHSGNAQVTQTKFLPNAPKALIVEPSRELAEQTLNNIKQFKKYIDNPKLRELLIIGGVAARDQLSVLENGVDIVVGTPGRLDDLVSTGKLNLSQVRFLVLDEADGLLSQGYSDFINRMHNQIPQVTSDGKRLQVIVCSATLHSFDVKKLSEKIMHFPTWVDLKGEDSVPDTVHHVVVPVNPKTDRLWERLGKSHIRTDDVHAKDNTRPGANSPEMWSEAIKILKGEYAVRAIKEHKMDQAIIFCRTKIDCDNLEQYFIQQGGGPDKKGHQFSCVCLHGDRKPHERKQNLERFKKGDVRFLICTDVAARGIDIHGVPYVINVTLPDEKQNYVHRIGRVGRAERMGLAISLVATEKEKVWYHVCSSRGKGCYNTRLKEDGGCTIWYNEMQLLSEIEEHLNCTISQVEPDIKVPVDEFDGKVTYGQKRAAGGGSYKGHVDILAPTVQELAALEKEAQTSFLHLGYLPNQLFRTF
B7: EFR3A 721-791 (Homo sapiens, UniProt Q14156); chain SNTEEITFEALKKAIDTSGMEEQEKEKRRLVIEKFQKAPFEEIAAQCESKANLLHDRLAQILELTIRPPPS
B8: designed binder (Homo sapiens); chain MASAARLTMMWEEVTCPICLDPFVEPVSIECGHSFCQECISQVGKGGGSVCPVCRQRFLLKNLRPNRQLANMVNNLKEISQEAREGTQGERCAVHGERLHLFCEKDGKALCWVCAQSRKHRDHAMVPLEEAAQEYQEKLQVALGELRRKQELAEKLEVEIAIKRADWKKTVETQKSRIHAEFVQQKNFLVEEEQRQLQELEKDEREQLRILGEKEAKLAQQSQALQELISELDRRCHSSALELLQEVIIVLERSESWNLKDLDITSPELRSVCHVPGLKKMLRTCAGGGGSGGGGSGGGGSRLDAPSQIEVKDVTDTTALITWDGPYTYIYSFELTYGIKDVPGDRTTIYLRYYNYYYSIGNLKPDTEYEVSLISSRSVRGSRRSSNPAKITFKTGL
B9: lptC 24-191 (Escherichia coli, UniProt P0ADV9); sequence looked up; chain MAEKDDTAQVVVNNNDPTYKSEHTDTLVYNPEGALSYRLIAQHVEYYSDQAVSWFTQPVLTTFDKDKIPTWSVKADKAKLTNDRMLYLYGHVEVNALVPDSQLRRITTDNAQINLVTQDVTSEDLVTLYGTTFNSSGLKMRGNLRSKNAELIEKVRTSYEIQNKQTQP
B10: MMACHC 1-243 (Homo sapiens, UniProt Q9Y4U1); chain MEPKVAELKQKIEDTLCPFGFEVYPFQVAWYNELLPPAFHLPLPGPTLAFLVLSTPAMFDRALKPFLQSCHLRMLTDPVDQCVAYHLGRVRESLPELQIEIIADYEVHPNRRPKILAQTAAHVAGAAYYYQRQDVEADPWGNQRISGVCIHPRFGGWFAIRGVVLLPGIEVPDLPPRKPHDCVPTRADRIALLEGFNFHWRDWTYRDAVTPQERYSEEQKAYFSTPPAQRLALLGLAQPSEKP
B11: SRS2 1107-1174 I1152A (Saccharomyces cerevisiae, UniProt P12954); N-terminal cysteine BODIPY-FL; chain CHNPDDTTVDNRPIISNAKFLADAAMKKTQKFSKKVKNEPASSQMDAFSQLSRAKKKSKLNNGEIIVID
B12: Ncoa1 260-369 (Mus musculus, UniProt P70365); sequence looked up; chain ESFMTKQDTTGKIISIDTSSLRAAGRTGWEDLVRKCIYAFFQPQGREPSYARQLFQEVMTRGTASSPSYRFILNDGTMLSAHTKCKLCYPQSPDMQPFIMGIHIIDREHS
B13: IL18 37-193 C74S/T99C/C104S/C112S/P124C/C163S (Homo sapiens, UniProt Q14116); chain YFGKLESKLSVIRNLNDQVLFIDQGNRPLFEDMTDSDSRDNAPRTIFIISMYKDSQPRGMAVCISVKSEKISTLSSENKIISFKEMNCPDNIKDTKSDIIFFQRSVPGHDNKMQFESSSYEGYFLASEKERDLFKLILKKEDELGDRSIMFTVQNED
B14: Cid14/Air1 222-684 D298A/D300A (Schizosaccharomyces pombe); chain 1 SQSCPWHRQYKVEREVSRIFHQDILHFIDYITPTPEEHAVRKTLVSRINQAVLQKWPDVSLYVFGSFETKLYLPTSALALVIISPEHHYRGTKKDMFVLAHHLKKLKLASEVQVITTANVPIIKFVDPLTKVHVDISFNQPGGLKTCLVVNGFMKKYPALRPLVIIIKHFLNMRALNEVFLGGLSSYAIVCLVVSFLQLHPRLSTGSMREEDNFGVLLLEFLELYGKQFYYDAVGIAVHNGGFYFSKKKMGWLKPNQPYLLSIQDPVDFQNDVSKSSRGLLRVKATFANGFDLLTSKLYALASRIEREGVNRVKDFPSILSTILSVDEGVRQHREHMLKCYKNNPVPLEPLVEVDALASIDVDKLPLQDVGLQYVEDESDSDETDAAKDDLFKVNESIETNGHENFQKQALTSTGEQSSSNSRANPSKLFNISSDDSEDEVPIIEDTTASDEESRAKKIRKRF; chain 2 MDMTVSNQKAESDDGSDIDDAALLQKINSLPIDQSITNSVSLEKHDFQGSDDHDSSTDLSDSTLEDVEGSEWADVSRGRYFGSDPSESIVCHNCKGNGHISKDCPHVLCTTCGAIDDHISVRCPWTKKCMNCGLLGHIAARCSEPRKRGPRVCRTCHTDTHTSSTCPLIWRYYVEKEHPVRIDVSEVRKFCYNCASDEHFGDDCTLPSRSNYPESTAFCEANCPSGNDASNKEFFETRRKEFQLERREQNRNQKSSKQRPFH
UniProt P20936, sequence (whole entry, unmodified, looked up): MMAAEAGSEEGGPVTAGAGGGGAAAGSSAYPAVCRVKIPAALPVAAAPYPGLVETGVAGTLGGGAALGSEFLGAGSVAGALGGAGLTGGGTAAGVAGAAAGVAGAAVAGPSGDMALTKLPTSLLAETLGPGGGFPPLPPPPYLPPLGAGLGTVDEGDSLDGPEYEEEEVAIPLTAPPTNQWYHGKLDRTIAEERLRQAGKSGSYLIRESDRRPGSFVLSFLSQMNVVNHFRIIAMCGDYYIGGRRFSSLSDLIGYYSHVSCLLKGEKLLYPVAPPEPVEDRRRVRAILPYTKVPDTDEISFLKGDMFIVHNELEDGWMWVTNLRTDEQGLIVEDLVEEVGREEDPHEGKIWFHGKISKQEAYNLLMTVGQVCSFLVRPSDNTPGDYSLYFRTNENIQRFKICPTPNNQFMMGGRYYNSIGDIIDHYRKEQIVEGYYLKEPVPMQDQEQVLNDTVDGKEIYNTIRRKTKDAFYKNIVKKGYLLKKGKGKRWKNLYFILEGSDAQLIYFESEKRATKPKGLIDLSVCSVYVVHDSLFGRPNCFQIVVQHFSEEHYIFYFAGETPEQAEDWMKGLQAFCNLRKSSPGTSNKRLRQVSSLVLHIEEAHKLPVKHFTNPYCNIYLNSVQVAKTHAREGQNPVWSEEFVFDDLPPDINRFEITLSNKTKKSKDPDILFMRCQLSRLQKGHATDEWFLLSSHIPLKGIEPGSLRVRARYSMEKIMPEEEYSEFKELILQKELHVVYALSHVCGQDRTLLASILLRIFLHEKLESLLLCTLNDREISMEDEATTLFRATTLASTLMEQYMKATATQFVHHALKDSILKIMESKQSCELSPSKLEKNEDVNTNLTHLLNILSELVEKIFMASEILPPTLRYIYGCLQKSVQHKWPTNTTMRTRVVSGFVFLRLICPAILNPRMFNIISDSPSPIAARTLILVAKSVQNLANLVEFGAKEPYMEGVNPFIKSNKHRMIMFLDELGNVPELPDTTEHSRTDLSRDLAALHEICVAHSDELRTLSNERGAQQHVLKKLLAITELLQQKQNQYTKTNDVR
UniProt O14232, sequence (whole entry, looked up): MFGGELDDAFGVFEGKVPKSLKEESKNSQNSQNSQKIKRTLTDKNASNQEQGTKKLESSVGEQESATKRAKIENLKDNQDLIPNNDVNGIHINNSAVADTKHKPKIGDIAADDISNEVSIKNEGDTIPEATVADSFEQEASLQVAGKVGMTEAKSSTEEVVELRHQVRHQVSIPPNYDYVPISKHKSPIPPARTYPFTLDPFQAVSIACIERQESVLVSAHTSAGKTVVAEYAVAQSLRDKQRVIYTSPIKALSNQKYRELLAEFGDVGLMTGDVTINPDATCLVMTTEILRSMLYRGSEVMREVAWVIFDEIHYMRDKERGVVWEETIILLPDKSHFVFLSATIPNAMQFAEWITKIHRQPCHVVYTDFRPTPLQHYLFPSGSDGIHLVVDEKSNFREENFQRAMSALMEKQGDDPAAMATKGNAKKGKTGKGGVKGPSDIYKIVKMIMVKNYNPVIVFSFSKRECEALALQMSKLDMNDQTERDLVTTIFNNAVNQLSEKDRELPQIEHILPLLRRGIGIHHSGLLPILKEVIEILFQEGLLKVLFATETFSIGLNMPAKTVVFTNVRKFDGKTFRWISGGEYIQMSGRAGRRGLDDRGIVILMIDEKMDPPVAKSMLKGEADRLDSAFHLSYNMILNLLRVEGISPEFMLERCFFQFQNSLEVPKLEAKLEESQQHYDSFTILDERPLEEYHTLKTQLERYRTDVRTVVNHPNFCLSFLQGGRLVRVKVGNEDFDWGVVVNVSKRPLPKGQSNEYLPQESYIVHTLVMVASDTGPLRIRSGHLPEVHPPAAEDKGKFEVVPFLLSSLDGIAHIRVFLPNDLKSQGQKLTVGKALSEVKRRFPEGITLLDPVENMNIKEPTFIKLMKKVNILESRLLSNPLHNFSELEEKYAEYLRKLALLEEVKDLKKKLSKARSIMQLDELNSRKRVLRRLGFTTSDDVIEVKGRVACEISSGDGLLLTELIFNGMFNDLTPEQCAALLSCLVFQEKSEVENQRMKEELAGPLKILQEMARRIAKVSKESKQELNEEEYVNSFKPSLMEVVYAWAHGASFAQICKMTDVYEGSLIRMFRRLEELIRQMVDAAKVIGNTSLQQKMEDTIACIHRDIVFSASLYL
UniProt Q9H3L0, sequence (whole entry, looked up): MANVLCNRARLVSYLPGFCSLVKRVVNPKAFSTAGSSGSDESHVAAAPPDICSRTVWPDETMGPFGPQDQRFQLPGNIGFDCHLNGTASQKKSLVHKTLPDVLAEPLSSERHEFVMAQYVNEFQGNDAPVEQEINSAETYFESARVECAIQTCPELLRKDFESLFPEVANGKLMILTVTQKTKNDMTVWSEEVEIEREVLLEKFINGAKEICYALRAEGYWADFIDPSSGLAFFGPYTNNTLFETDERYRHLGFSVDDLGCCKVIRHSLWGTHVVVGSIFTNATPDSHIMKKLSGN

Molecule	tested on	assay	test system	conditions	scale	quantity	result
B1 (ATP synthase subunit O, human)	PP6C (human)	co-immunoprecipitation, IP-MS	CYB5R4 knockout cells	concentration not given	baseline: CYB5R4 knockout over parental	log2 fold change	-2.98
B2 (ATG9 864-997)	Atg23 full-length, dimer (yeast, UniProt Q06671)	ITC	–	pH 8, 20 °C, NaCl 150 mM	–	Kd	790 nM
B3 (VHH nanobody 6B1)	FXN 90-210 H177C (Homo sapiens, UniProt Q16595)	BLI	VHH	–	–	Kd	6 nM
GRIN2A fragment (sequence not shown)	SNX27 fragment (Rattus norvegicus)	ITC	–	–	–	Kd	46000 nM
KGTILKASVDYIRRM (TFEB residues 274-288)	TRIP12 (Homo sapiens, UniProt Q14669)	MST	peptide, 293T, lysate	GFP-tagged	–	Kd	38.3 nM
PF4 tetramer	GP6 monomer (UniProt Q9HCN6)	SPR	–	–	–	Kd	1300 ± 140 nM
B4	LGR4 (Homo sapiens, UniProt Q9BXB1)	whole-cell binding saturation	Fc fusion, HEK293T	–	–	Kd	2.4 nM
B5 (Mena EVH1 1-113)	PTP1B, N-terminal 5-TAMRA (Homo sapiens)	fluorescence polarization	–	–	–	Kd	13000 nM
CCAUGAAUG (ssRNA)	U2AF2	sequencing of bound RNA	RNA	motif only	–	Kd	2840 nM
CTCGCTCCATCTCCAGAACTACAAGTCCCAGAGTGTCAAGTCAATCGGTCC (dsDNA; 5'-amino-C6 primer)	SPT15 full length assumed (Saccharomyces cerevisiae, UniProt P13393)	array	double-stranded DNA, one strand shown	TBP alone	–	Kd	5.57 ± 0.4 nM
KLLMIIHDRREFAKFEKEKMNAKWDTQENPIYKSPINNFKNPNYGRKAGL (ITGB1 752-801 (Homo sapiens, UniProt P05556-5); sequence looked up)	Tln2 312-408 (Mus musculus, UniProt Q71LX4)	NMR titration	–	–	–	Kd	36000 nM
B6 (human DDX1)	PP6C (human)	co-immunoprecipitation, IP-MS	CYB5R4 knockout cells	concentration not given	baseline: CYB5R4 knockout over parental	log2 fold change	-0.64
SSSPQQRSGLRSQKLHLTYIEKNKRVRAMIPQ (lst-1 67-98 (Caenorhabditis elegans, UniProt P91820); sequence looked up)	fbf-1 162-573 (Caenorhabditis elegans, UniProt Q9N5M6)	ITC	peptide	NaCl 150 mM	–	Kd	200 nM
11-deoxycorticosterone	CYP11B2 (human)	substrate binding, stopped-flow global kinetic fitting	purified enzyme	model, linear, 4 state, CS-IF, together with: no adrenodoxin	–	Kd	2760 nM
B7 (EFR3A 721-791)	TTC7A/FAM126B FAM126B 1-308	BLI	–	–	–	Kd	0.473 nM
B8 (designed binder)	EED (Homo sapiens, UniProt O75530)	BLI	designed binder	–	–	Kd	> 3800 nM
Cacng2 fragment (Mus musculus) (sequence not shown)	DLG4 PDZ1, pS142 (Homo sapiens)	ITC	–	–	–	Kd	35000 nM
TLN1 head domain	ITGB3 residues 720-750, FAM label	fluorescence polarization	–	–	–	Kd	10000 nM
DPSDYAEPMDAVVKPRNEEENIYSVPHDS (ARHGAP35 residues 1083-1111; pY1087/pY1105, N-acetyl, C-amide)	RASA1 174-444 C236S/C261S/C372S/C402S (Homo sapiens, UniProt P20936)	ITC	peptide	–	–	Kd	3.59 nM and 6.49 nM and 5.04 nM
B9 (lptC 24-191)	LptB2FG C204A/C28S/C91T, MTSL spin label (Escherichia coli, UniProt P0A9V1)	CW EPR titration	–	one-site fit, in nanodiscs	–	Kd	2600 ± 300 nM
UMOD EGF-like domains	EGFR 25-645 (Homo sapiens, UniProt P00533)	MST	–	–	–	Kd	628 ± 173 nM
B10 (MMACHC 1-243)	MMADHC 116-296 (Homo sapiens, UniProt Q9H3L0)	UV-visible absorption titration	–	–	–	Kd	< 200 nM
PARRSEELVAEAHNLCTLLENAIQDTVREQDQSFTALDWSWLQTE (IKBKB 701-745 K703R/K704R (UniProt O14920); N-terminal FITC; sequence looked up)	T1, IKBKG 44-113 C95A/C76S/E110V/R106E/E78R/R75V/L55R/T50E	fluorescence polarisation	peptide	–	–	Kd	272 nM
B11 (SRS2 1107-1174 I1152A)	POL30 1-258 K127G (Saccharomyces cerevisiae, UniProt P15873)	fluorescence polarisation	–	apparent	–	Kd	10200 nM
B12 (Ncoa1 260-369)	NR4A2 1-165 (Homo sapiens, UniProt P43354)	ITC	–	–	–	Kd	8100 nM
GGUAUUUGC (ssRNA)	U2AF2	sequencing of bound RNA	RNA	motif only	–	Kd	1780 nM
B13	IL18BP (Homo sapiens, UniProt O95998)	SPR	–	–	–	Kd	0.008 nM
Cacna1c fragment V2071E (Rattus norvegicus)	CACNA1C IQ motif 1644-1668, fluorescein label (UniProt P15381)	fluorescence polarisation	–	–	–	Kd	230000 ± 20000 nM
B14 (Cid14/Air1 222-684 D298A/D300A)	mtr4 (Schizosaccharomyces pombe, UniProt O14232)	SPR	–	–	–	Kd	179 ± 59 nM

Some of these lines once more:
Molecule	tested on	assay	test system	conditions	scale	quantity	result
DPSDYAEPMDAVVKPRNEEENIYSVPHDS (ARHGAP35 residues 1083-1111; pY1087/pY1105, N-acetyl, C-amide)	RASA1 174-444 C236S/C261S/C372S/C402S (Homo sapiens, UniProt P20936)	ITC	peptide	–	–	Kd	3.59 nM and 6.49 nM and 5.04 nM
B8 (designed binder)	EED (Homo sapiens, UniProt O75530)	BLI	designed binder	–	–	Kd	> 3800 nM
B7 (EFR3A 721-791)	TTC7A/FAM126B FAM126B 1-308	BLI	–	–	–	Kd	0.473 nM
B10 (MMACHC 1-243)	MMADHC 116-296 (Homo sapiens, UniProt Q9H3L0)	UV-visible absorption titration	–	–	–	Kd	< 200 nM
